Measurements of several laboratories.
Each line is one published result; not all experiments were run side by side. Values joined by “and” are separate records of one study, mostly repeats; a detail may differ. ± marks the error that the study gave. Where no end group is shown, it is not given here.
B1: disulfide; chain RTCESKSHRFKGLCLSETNCKNVCHNEGFGGGNCRGARRRCFCTRHC (disulfide (positions not given here))

Molecule | tested on | assay | system | setting | scale | endpoint | result
colistin | Klebsiella pneumoniae | broth microdilution | KPC-100 producing |  |  | MIC | 32 µg/mL
colistin | Aspergillus fumigatus |  | A1163 |  |  | MIC | > 80 µM
nonaarginine | PorA peptide pore | peptide binding, planar bilayer single-channel recording |  | pH 7.4, +35 mV, trans side, 150 mM KCl |  | Kd | 7.03 ± 0.7 µM
Polymyxin B | Klebsiella pneumoniae | broth microdilution | KPC-25 producing |  |  | MIC | 32 µg/mL
heparin sodium |  |  | healthy Chinese adult volunteers | continuous intravenous infusion, 8 IU/kg/h, 5 days |  | subjects with mild AEs | 50%
DAPT | Enterococcus faecium |  | ATCC 700221 vancomycin-resistant |  |  | MIC | 6.2 µg/mL
Polymyxin B | Acinetobacter baumannii | broth microdilution, MH medium | carbapenem-resistant CCARM 12004 | 16 h, 37 °C |  | MIC | 4 µM
polymyxin B | Acinetobacter baumannii |  | colistin-resistant pmrB mutant, Mueller-Hinton broth |  |  | MIC | 16 µg/mL
colistin | Acinetobacter baumannii |  | NCTC 13304, carbapenem-resistant |  |  | MIC | 0.5 µg/mL
thiostrepton | Enterococcus faecalis |  | vancomycin-susceptible |  |  | MIC | ≤ 0.03 µg/mL
Polymyxin B | Pseudomonas aeruginosa | broth microdilution | P3 clinical isolate | 20 h |  | MIC | 2 µg/mL
colistin | Staphylococcus aureus |  | USA300 | combination, median and range, added: OA 32 µg/mL |  | MIC | 128 µg/mL
Teicoplanin A2-2 | Enterococcus faecalis |  | vancomycin-resistant |  |  | MIC | > 32 µg/mL
insulin human |  | refers to: GFPT1 | mouse, uninfected, brain | ip, dose not given, added: insulin | baseline: PBS-treated | mRNA fold change | 1.1
Polymyxin B |  |  | mouse | intraperitoneal, 40 mg/kg single dose, day 4 |  | survival | 0%
B1 | Botrytis cinerea | fungal growth |  |  |  | MIC | ≤ 0.38 µM
tunicamycin | Enterococcus faecium | EUCAST broth microdilution | ATCC 51559 MDR VRE | 18-24 h, 37 °C |  | MIC | 64 µg/mL
hexaarginine | PorA peptide pore | peptide binding, planar bilayer single-channel recording |  | pH 7.4, +25 mV, trans side, 150 mM KCl |  | Kd | 28.4 ± 3 µM
HVLVMSATRR |  |  | peptide, C57BL/6J mice, male, serum | subcutaneous osmotic pump, 3 mg/kg/day peptide basis, 8 weeks |  | total cholesterol | 101 mg/dL and 100 mg/dL
colistin sulfate | Pseudomonas aeruginosa | broth microdilution | CICC 21625 |  |  | MIC | 6.8 µM
aspterric acid | Arabidopsis thaliana |  | 2-week-old plants | foliar spray, 200 µg/mL, 20 days, postemergence |  | aboveground fresh weight | 393 mg

A few entries again:
Molecule | tested on | assay | system | setting | scale | endpoint | result
insulin human |  | refers to: GFPT1 | mouse, uninfected, brain | ip, dose not given, added: insulin | baseline: PBS-treated | mRNA fold change | 1.1
Polymyxin B |  |  | mouse | intraperitoneal, 40 mg/kg single dose, day 4 |  | survival | 0%
B1 | Botrytis cinerea | fungal growth |  |  |  | MIC | ≤ 0.38 µM
